Published values from different studies.
Each numbered part is a random draw from the data of one study; scales do not carry over between parts. “And” joins repeats or separate records; there may be more than shown.
Sequence of UniProt P42336 (whole entry, unmodified, looked up): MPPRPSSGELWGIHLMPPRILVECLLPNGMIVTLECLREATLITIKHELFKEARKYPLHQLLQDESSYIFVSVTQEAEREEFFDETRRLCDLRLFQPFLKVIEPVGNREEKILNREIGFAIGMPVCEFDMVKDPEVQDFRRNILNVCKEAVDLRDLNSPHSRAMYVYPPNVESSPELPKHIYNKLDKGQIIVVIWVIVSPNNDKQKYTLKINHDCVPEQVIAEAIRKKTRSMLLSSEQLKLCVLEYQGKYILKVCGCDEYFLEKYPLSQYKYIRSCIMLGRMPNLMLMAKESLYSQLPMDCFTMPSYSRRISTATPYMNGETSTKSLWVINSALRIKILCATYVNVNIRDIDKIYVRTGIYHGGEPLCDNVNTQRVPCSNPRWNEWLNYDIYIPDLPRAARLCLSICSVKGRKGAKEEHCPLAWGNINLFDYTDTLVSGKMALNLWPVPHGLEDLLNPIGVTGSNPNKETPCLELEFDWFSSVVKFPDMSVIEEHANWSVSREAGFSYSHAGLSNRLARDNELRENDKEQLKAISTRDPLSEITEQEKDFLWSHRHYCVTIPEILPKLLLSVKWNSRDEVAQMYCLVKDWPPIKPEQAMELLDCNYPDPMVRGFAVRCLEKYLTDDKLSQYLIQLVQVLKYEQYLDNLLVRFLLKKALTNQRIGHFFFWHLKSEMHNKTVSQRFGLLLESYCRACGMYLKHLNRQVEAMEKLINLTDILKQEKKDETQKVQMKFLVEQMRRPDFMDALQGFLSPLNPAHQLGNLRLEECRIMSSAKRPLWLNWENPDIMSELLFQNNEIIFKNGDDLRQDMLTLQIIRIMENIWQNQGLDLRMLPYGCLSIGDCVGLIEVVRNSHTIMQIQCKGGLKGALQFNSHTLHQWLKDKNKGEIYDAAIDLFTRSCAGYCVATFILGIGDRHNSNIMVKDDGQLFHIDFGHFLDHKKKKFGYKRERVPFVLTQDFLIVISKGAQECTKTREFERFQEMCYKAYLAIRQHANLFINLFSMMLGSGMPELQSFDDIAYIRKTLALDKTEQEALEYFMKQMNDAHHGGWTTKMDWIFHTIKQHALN
Sequence of UniProt P28482 (whole entry, looked up): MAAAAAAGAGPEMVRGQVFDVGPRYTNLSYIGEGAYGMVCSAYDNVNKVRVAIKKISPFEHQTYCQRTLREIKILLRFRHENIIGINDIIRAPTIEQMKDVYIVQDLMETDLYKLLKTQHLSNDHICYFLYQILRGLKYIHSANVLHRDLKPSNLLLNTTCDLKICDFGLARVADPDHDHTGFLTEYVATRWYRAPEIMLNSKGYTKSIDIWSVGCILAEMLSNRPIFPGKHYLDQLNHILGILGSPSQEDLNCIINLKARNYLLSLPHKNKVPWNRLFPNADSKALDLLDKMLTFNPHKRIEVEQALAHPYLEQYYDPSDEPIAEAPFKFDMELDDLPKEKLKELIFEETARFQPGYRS
Sequence of UniProt Q8TBX8 (whole entry, looked up): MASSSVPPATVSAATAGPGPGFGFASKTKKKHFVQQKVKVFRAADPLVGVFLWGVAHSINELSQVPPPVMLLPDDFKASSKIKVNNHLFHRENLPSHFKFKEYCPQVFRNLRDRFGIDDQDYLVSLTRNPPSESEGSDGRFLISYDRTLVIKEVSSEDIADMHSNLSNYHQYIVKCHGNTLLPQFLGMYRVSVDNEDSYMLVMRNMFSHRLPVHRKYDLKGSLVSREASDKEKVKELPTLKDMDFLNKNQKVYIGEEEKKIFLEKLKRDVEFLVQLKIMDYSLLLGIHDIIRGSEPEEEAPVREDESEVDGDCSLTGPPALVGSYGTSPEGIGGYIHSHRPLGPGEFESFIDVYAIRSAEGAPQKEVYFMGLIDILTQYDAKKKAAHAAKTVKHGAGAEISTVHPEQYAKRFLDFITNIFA

Sample 1
Organism: Plasmodium berghei
Mode: inhibitor
Cell line: Huh-7
Strain: liver stage
Tested at: 10 µM
Time: 24 h
Relative to: untreated control
Endpoint: infection rate
SMILES = Cc1ccsc1/C=C/C1=NCCCN1C; result = 74.6%
SMILES = C#C[C@]1(O)CC[C@H]2[C@@H]3CCc4cc(OC)ccc4[C@H]3CC[C@@]21C; result = 91.9%
SMILES = CC1(C)S[C@@H]2[C@H](N3C(=O)[C@@H](c4ccccc4)NC3(C)C)C(=O)N2[C@H]1C(=O)O; result = 100%
SMILES = CCc1cccc2c3c([nH]c12)C(CC)(CC(=O)O)OCC3 (centres unmarked); result = 100%
SMILES = O[C@H]1[C@H](O)[C@@H](O)[C@H](O)[C@@H](O)[C@H]1O; result = 109%
SMILES = CC(=O)OCC(=O)[C@@]12OC(C)(C)O[C@@H]1C[C@H]1[C@@H]3C[C@H](F)C4=CC(=O)C=C[C@]4(C)[C@@]3(F)[C@@H](O)C[C@@]12C; result = 83.6%
SMILES = CC(C(=O)O)c1ccc(-c2ccccc2)c(F)c1 (centres unmarked); result = 99.8%

Sample 2
Target: Eukaryotic initiation factor 4A-III (Homo sapiens, UniProt P38919)
Sequence of UniProt P38919 (whole entry, looked up): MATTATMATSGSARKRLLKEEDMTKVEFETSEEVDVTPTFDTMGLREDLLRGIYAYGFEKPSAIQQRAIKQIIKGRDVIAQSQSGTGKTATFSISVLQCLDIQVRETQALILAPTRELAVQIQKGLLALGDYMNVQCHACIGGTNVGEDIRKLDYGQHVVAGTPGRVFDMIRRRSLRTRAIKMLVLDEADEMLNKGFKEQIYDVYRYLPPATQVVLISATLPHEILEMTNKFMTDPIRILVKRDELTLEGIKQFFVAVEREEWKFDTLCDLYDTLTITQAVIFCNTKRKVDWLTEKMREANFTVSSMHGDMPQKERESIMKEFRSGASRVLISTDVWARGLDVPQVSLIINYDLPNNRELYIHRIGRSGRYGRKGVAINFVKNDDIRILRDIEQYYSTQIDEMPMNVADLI
Observed: RNA clamping
Technique: fluorescence polarization
Tested at: concentration not given
Notes: mean of two replicates
Together with: FAM-labelled poly r(AG)8 RNA
Endpoint: fluorescence polarization change
Structure (SMILES) = COC(=O)[C@@H]1[C@@H](c2ccccc2)[C@]2(c3ccc(OC)cc3)Oc3cc(OC)cc(OC)c3[C@@]23NC(CCl)=N[C@@]13O; result = 13.5 mP
Structure (SMILES) = COC(=O)[C@H]1C(=O)[C@@]2(NCCCC(OC)OC)c3c(OC)cc(OC)cc3O[C@@]2(c2ccc(OC)cc2)[C@@H]1c1ccccc1; result = 16.4 mP
Structure (SMILES) = COc1cc(OC)c2c(c1)O[C@@]1(c3ccc(OC)c(O)c3)[C@H](c3ccccc3)[C@@H](C(=O)c3ccco3)[C@@H](O)[C@@]21O; result = -1.8 mP
Structure (SMILES) = COc1cc(OC)c2c(c1)O[C@@]1(c3ccc(C#N)cc3)[C@H](c3ccccc3)[C@@H](CN(C)C)[C@@H](O)[C@@]21O; result = 46.5 mP
Structure (SMILES) = C#CCOc1ccc(-c2nc(OCC#C)c3c(n2)[C@@]2(O)c4c(OC)cc(OC)cc4O[C@@]2(c2ccc(OC)cc2)[C@@H]3c2ccccc2)cc1; result = 2.1 mP
Structure (SMILES) = COC(=O)[C@H]1[C@@H](O)[C@@]2(O)c3c(OC)cccc3N(C)[C@@]2(c2ccc(Br)cc2)[C@@H]1c1ccccc1; result = 1.7 mP

Sample 3
Target: DNA polymerase theta, ATPase domain (POLQ, Homo sapiens, UniProt O75417)
Sequence of UniProt O75417 (whole entry, unmodified, looked up): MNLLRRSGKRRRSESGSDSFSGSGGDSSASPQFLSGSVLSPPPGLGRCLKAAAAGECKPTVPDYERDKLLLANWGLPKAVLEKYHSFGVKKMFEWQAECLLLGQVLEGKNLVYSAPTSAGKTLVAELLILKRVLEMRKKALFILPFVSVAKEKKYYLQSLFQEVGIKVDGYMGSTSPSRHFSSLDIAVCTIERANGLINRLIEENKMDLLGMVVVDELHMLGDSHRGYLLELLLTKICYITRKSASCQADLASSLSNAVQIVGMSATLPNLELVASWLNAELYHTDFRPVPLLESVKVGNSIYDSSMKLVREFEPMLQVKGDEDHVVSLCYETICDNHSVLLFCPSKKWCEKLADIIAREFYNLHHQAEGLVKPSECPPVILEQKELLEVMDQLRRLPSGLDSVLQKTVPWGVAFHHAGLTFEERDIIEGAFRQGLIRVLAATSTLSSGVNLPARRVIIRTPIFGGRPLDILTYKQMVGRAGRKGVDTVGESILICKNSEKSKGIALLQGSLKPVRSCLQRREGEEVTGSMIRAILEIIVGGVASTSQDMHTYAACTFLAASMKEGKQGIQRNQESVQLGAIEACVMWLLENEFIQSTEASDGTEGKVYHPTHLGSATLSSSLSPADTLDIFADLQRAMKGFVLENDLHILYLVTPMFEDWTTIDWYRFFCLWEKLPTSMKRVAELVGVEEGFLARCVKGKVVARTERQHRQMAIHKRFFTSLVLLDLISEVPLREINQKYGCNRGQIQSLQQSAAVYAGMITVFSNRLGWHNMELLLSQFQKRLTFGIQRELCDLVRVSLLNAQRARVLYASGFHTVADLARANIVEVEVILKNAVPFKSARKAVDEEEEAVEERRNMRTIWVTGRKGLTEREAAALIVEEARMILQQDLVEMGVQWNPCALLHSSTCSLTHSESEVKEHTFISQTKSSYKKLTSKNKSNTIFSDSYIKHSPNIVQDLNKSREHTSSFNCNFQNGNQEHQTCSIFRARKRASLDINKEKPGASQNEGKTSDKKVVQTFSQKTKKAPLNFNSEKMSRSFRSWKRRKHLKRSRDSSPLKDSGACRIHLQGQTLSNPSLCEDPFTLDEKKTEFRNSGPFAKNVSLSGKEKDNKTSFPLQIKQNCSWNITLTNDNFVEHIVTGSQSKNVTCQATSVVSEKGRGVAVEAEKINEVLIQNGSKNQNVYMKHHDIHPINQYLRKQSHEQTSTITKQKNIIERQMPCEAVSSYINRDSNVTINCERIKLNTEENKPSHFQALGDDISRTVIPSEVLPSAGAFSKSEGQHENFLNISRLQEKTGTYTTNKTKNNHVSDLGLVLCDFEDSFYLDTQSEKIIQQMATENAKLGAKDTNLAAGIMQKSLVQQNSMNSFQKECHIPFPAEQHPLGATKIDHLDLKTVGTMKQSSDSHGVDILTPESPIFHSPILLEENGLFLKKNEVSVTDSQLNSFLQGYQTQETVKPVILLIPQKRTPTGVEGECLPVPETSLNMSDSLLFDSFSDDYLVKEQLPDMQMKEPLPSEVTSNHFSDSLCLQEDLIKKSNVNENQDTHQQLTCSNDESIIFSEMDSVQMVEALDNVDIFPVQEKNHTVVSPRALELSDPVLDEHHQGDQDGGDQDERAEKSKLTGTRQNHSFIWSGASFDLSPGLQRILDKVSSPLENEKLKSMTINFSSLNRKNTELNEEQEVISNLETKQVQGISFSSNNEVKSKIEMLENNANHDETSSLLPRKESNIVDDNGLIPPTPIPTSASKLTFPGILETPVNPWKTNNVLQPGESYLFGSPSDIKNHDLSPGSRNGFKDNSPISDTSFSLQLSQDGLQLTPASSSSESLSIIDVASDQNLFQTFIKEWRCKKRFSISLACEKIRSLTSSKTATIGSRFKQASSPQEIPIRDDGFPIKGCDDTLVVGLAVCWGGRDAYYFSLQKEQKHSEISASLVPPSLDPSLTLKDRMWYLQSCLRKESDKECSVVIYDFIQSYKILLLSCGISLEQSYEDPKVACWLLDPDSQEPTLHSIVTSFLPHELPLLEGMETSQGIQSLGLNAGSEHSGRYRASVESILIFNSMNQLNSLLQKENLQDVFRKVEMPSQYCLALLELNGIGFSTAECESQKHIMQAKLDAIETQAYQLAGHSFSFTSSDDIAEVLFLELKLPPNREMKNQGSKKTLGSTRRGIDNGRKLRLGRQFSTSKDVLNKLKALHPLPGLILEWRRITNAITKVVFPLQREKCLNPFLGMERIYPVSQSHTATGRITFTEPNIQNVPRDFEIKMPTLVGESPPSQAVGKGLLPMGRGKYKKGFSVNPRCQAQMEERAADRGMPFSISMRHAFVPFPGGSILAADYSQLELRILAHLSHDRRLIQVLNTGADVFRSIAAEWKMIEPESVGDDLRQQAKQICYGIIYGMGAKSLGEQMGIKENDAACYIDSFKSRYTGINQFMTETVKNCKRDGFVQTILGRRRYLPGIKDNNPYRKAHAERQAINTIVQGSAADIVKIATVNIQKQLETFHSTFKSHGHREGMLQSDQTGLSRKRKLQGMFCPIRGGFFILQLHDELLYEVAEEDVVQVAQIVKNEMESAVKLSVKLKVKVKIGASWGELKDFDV
Observed: enzyme activity
Mode: inhibitor
Tested at: 77 µM
Relative to: untreated
Endpoint: remaining activity
SMILES = CCN=C1N[C@@H]2[C@@H](O)[C@H](O)[C@@H](CO)O[C@@H]2S1; result = 101%
SMILES = O=C(O)CCC(=O)N1CCC[C@H]1C(=O)O; result = 97.2%
SMILES = Clc1ccc(C(Cn2ccnc2)OCc2ccsc2Cl)c(Cl)c1 (centres unmarked); result = 100%
SMILES = CCCNS(=O)(=O)Nc1ncnc(OCCOc2ncc(Br)cn2)c1-c1ccc(Br)cc1; result = 88.7%
SMILES = CCC(=O)OCC(=O)[C@@]1(OC(=O)CC)[C@@H](C)C[C@H]2[C@@H]3CCC4=CC(=O)C=C[C@]4(C)[C@@]3(Cl)[C@@H](O)C[C@@]21C; result = 99.6% and 101%
SMILES = CN1CCCC(CC2c3ccccc3Sc3ccccc32)C1 (centres unmarked); result = 108%
SMILES = Cc1cc(N2CCOCC2)ccc1Nc1nc(NC2CCCCC2)c2[nH]cnc2n1; result = 83.6%

Sample 4
SMILES: CC(=O)N1CCC(c2ccc(C(=O)NC(=N)N)cc2C(F)(F)F)CC1
Observed: cell-free assay
Technique: competition with immobilised ligand
Tested at: 1 µM
Endpoint: remaining binding
target = TRPM6 (Homo sapiens, UniProt Q9BX84); result = 98%
target = PIK3CA (Homo sapiens, UniProt P42336, M1043I); result = 100%
target = COQ8A (Homo sapiens, UniProt Q8NI60); result = 96%
target = WNK1 (Homo sapiens, UniProt Q9H4A3); result = 100%
target = ULK2 (Homo sapiens, UniProt Q8IYT8); result = 100%
target = TLK2 (Homo sapiens, UniProt Q86UE8); result = 100%
target = EIF2AK1 (Homo sapiens, UniProt Q9BQI3); result = 100%
target = CDK18 (Homo sapiens, UniProt Q07002); result = 94%
target = CHEK2 (Homo sapiens, UniProt O96017); result = 100%
target = PIK3CA (Homo sapiens, UniProt P42336, I800L); result = 90%
target = KIT (Homo sapiens, UniProt P10721, V559D); result = 100%
target = MAPK1 (Homo sapiens, UniProt P28482); result = 96%
target = DYRK2 (Homo sapiens, UniProt Q92630); result = 89%
target = CDKL2 (Homo sapiens, UniProt Q92772); result = 100%
target = ALK (Homo sapiens, UniProt Q9UM73, L1196M); result = 96%
target = PLK4 (Homo sapiens, UniProt O00444); result = 100%
target = HIPK4 (Homo sapiens, UniProt Q8NE63); result = 100%
target = PIP4K2C (Homo sapiens, UniProt Q8TBX8); result = 100%
target = Tyrosine-protein kinase ABL1, phosphorylated (ABL1, Homo sapiens, UniProt P00519, H396P); result = 86%
target = PIK3C2G (Homo sapiens, UniProt O75747); result = 100%
target = SLK (Homo sapiens, UniProt Q9H2G2); result = 100%
target = MYLK3 (Homo sapiens, UniProt Q32MK0); result = 100%
target = IKBKB (Homo sapiens, UniProt O14920); result = 100%
target = Insulin receptor (INSR, Homo sapiens, UniProt P06213); result = 100%

Sample 5
Cell line: mouse MPNST tumor cells
Technique: high-content nuclear imaging
Refers to: cell number
Tested at: 10 µM
Time: 12 h
Notes: mean of 2 replicates
Relative to: plate mean
Reading: higher = more cells
Endpoint: nuclei count
Structure (SMILES) = O=C(Nc1c(-c2cccs2)nc2ccccn12)c1ccc(Cl)cc1; result = 2.17 z-score
Structure (SMILES) = CN(C)CCN(Cc1ccccc1)c1ccccn1; result = 0.988 z-score
Structure (SMILES) = CC(=O)OC[C@H]1O[C@@H]([S-])[C@H](OC(C)=O)[C@@H](OC(C)=O)[C@@H]1OC(C)=O.CCP(CC)CC.[Au+]; result = -5.99 z-score
Structure (SMILES) = C1CCC(N=C(NC23CC4CC(CC(C4)C2)C3)N2CCOCC2)CC1; result = -0.201 z-score
Structure (SMILES) = Cc1cc(C)c(C)c(S(=O)(=O)Nc2ccc(N3CC[C@H](C(=O)O)C3)c3ccccc23)c1C; result = -2.17 z-score
Structure (SMILES) = CCCC[P+](CCCC)(CCCC)Cc1ccc(NC(=O)C(Cc2ccc3ccccc3c2)NC(=NC2CCCCC2)NC2CCCCC2)cc1 (centres unmarked); result = -2.87 z-score
Structure (SMILES) = CCOc1nc2cccc(C(=O)O)c2n1Cc1ccc(-c2ccccc2-c2noc(=O)[nH]2)cc1; result = 0.897 z-score
Structure (SMILES) = O=C(Nc1cc(C(F)(F)F)ccc1N1CCCCC1)c1ccncc1; result = -0.675 z-score
Structure (SMILES) = Cc1noc(C)c1-c1cc(O)cc(C(O)c2ccccc2)c1 (centres unmarked); result = -1.55 z-score

Excerpt of the above (sample 2):
Structure (SMILES) = C#CCOc1ccc(-c2nc(OCC#C)c3c(n2)[C@@]2(O)c4c(OC)cc(OC)cc4O[C@@]2(c2ccc(OC)cc2)[C@@H]3c2ccccc2)cc1; result = 2.1 mP
Structure (SMILES) = COC(=O)[C@H]1C(=O)[C@@]2(NCCCC(OC)OC)c3c(OC)cc(OC)cc3O[C@@]2(c2ccc(OC)cc2)[C@@H]1c1ccccc1; result = 16.4 mP
Structure (SMILES) = COc1cc(OC)c2c(c1)O[C@@]1(c3ccc(OC)c(O)c3)[C@H](c3ccccc3)[C@@H](C(=O)c3ccco3)[C@@H](O)[C@@]21O; result = -1.8 mP
Structure (SMILES) = COC(=O)[C@H]1[C@@H](O)[C@@]2(O)c3c(OC)cccc3N(C)[C@@]2(c2ccc(Br)cc2)[C@@H]1c1ccccc1; result = 1.7 mP
Structure (SMILES) = COC(=O)[C@@H]1[C@@H](c2ccccc2)[C@]2(c3ccc(OC)cc3)Oc3cc(OC)cc(OC)c3[C@@]23NC(CCl)=N[C@@]13O; result = 13.5 mP
